Published values collected from several papers.
Compare with care: the assays were run in different laboratories. Several values in a cell are separate wells, animals, samples, runs or records. ± marks the error that the study gave.

Compound	assay	system	setting	scale	endpoint	result
CSCCNc1nc(SCCC(F)(F)F)nc2c1ncn2[C@@H]1O[C@H](COP(=O)(O)OP(=O)(O)C(Cl)(Cl)P(=O)(O)O)[C@@H](O)[C@H]1O	platelet aggregation, light transmittance aggregometry	human, platelet-rich plasma	dose not given, 30 min, IPA above 80 %, added: TRAP 15 µM	relative to: patients	patients with IPA above threshold	0%
N#Cc1ccc2c(-c3ccncc3)c(-c3ccc(F)cc3)nn2c1	kinase binding, competitor, MIB/MS competition, measured: NIK1	Candida albicans cell lysate	1 µM	relative to: DMSO	log2 fold change	-0.411
C[C@H](Oc1ccc(Br)cc1-c1ccon1)C(=O)O	handgrip dynamometry	healthy human males	600 mg once daily, multiple doses	relative to: placebo	maximum voluntary grip contraction	-2.36 kg
CC(C)c1ccc(S(=O)(=O)Nc2ccc(O)c(Br)c2)cc1	CoA-CPM signal reduction, CPM fluorescence thiol	cell-free biochemical	assay interference counter-screen, added: CoA replacing acetyl-CoA	–	IC50	> 125 µM
CC1(C)C=C(CNc2ccc3c(c2)Cc2cc(Br)ccc2-3)C(C)(C)N1[O]	MRI, MSME	wild-type mice, brain	iv, 3 mg/kg, 24 h	–	T1 relaxation time	1470 ms
N=C(N/N=C/c1ccc2c(c1)OCO2)SC1CC(=O)N(c2ccc(Br)cc2)C1=O (stereo not shown)	CoA-CPM signal reduction, CPM fluorescence thiol	cell-free biochemical	assay interference counter-screen, added: CoA replacing acetyl-CoA	–	IC50	> 125 µM
CN(C)C(=O)c1cc2cnc(Nc3ccc(N4CCNCC4)cn3)nc2n1C1CCCC1	RNA-seq GSEA, measured: HALLMARK_ALLOGRAFT_REJECTION	MB002 tumour	concentration not given, in vivo	relative to: vehicle, direction not given	normalized enrichment score	-0.986
CC(=O)N(C(=O)c1cc(C(F)(F)F)cc(C(F)(F)F)c1)c1ccccc1	HPLC-MS	–	pH 10.2, added: 50 mM N-α-acetyl-lysine	–	pseudo-first-order rate constant	3.1 h⁻¹
CO[C@@H]1[C@@H](OC(N)=O)[C@@H](O)[C@H](Oc2ccc3c(O)c(NC(=O)c4ccc(O)c(CC=C(C)C)c4)c(=O)oc3c2C)OC1(C)C	–	Brca1 wild-type MEFs, mouse	50 µM	–	colony survival	68.2% and 85.2% and 70.2% and 82.6% and 81.4%
O[C@H]1CCCN[C@@H]1CCCn1cnc2c(Cl)c(Cl)ccc21	ELISA, measured: Pro-C6	healthy human volunteers, serum	intraduodenal, 200 mg twice daily, day 14, multiple ascending dose	–	maximum reduction	13.8%
O=C(O)CCC(=O)O.[2H]C([2H])([2H])Oc1cc(C)c2[nH]ccc2c1CN1CC[C@@H](C2CC2)C[C@H]1c1ccc(C(=O)O)cc1	EIA, measured: complement fragment Bb	human, plasma	200 mg once daily, multiple ascending dose	–	maximum inhibition	47.5%
O=C1O[C@H]([C@@H](O)CO)C(O)=C1O	hydroxyl radical scavenging	–	120 µM	–	inhibition	47.9%
CO[C@H]1CC[C@H](N2C(=O)CNc3ncc(-c4ccc(C(C)(C)O)nc4)nc32)CC1	flow cytometry	stimulated T cells, human, blood	30 mg single dose, 3 h, median	relative to: baseline	p4EBP1 change from baseline	-44%
COc1cc(Nc2ncc3c(n2)-c2ccc(Cl)cc2C(c2c(F)cccc2OC)=NC3)ccc1C(=O)O	–	mice, NB-1382 neuroblastoma xenograft	oral, 20.8 mg/kg, day 21	–	relative tumour volume T/C	1.17
N#CC[C@H](C1CCCC1)n1cc(-c2ncnc3[nH]ccc23)cn1	–	mouse, oxazolone dermatitis, plasma	oral, 90 mg/kg, once daily, unit not given	relative to: vehicle	IL4 level difference	20.2
CCCCC1(CCCC)CN(c2ccccc2)c2cc(SC)c(OCC(=O)N[C@@H](C(=O)NCC(=O)O)c3ccccc3)cc2S(=O)(=O)C1	measured: 7α-hydroxy-4-cholesten-3-one	human, plasma	2.5 mg once daily, day 8	–	plasma C4	39.7 ng/mL
Cn1cc(Nc2nccc(-c3ccc4c(c3)CN(C3COC3)CC[C@H]4NC(=O)c3cn(C(C)(C)C)nn3)n2)cn1	measured: ILK signalling	mouse splenic B cells, mouse	30 mg/kg, IgD-activated B cells in vivo	relative to: vehicle, direction not given	pathway activation z-score	2.29
C[C@@H](NC(=O)N1C(=O)[C@H](Cc2ccnc(N)c2)[C@H]1C(=O)O)C1CCCCC1	–	human, plasma	continuous intravenous infusion, 0.6 mg/kg/h, days 1 to 6 of 5-day infusion, mean	–	maximum prothrombin time	13.2 s
C[C@@H](O)CCOC(=O)C[C@@H](C)O	–	human	oral drink, dose not given, 90 min post dose, median, all participants	–	plasma insulin	620 pg/mL
O=C(O)CNC(=O)Cc1ccccc1	–	ventricular cardiomyocytes, C57BL/6 mouse	dose not given, 0.58 s	–	sarcomere length	1.64 µm
O=S1(=O)C=Cc2ccccc21	CoA-CPM signal reduction, CPM fluorescence thiol	cell-free biochemical	assay interference counter-screen, added: CoA replacing acetyl-CoA	–	IC50	> 125 µM
NC(=O)c1cnc2[nH]ccc2c1N[C@@H]1[C@@H]2CC3C[C@H]1C[C@@](O)(C3)C2	flow cytometry	Japanese healthy men, blood	oral, 100 mg twice daily, 72 h after day 7 dose	relative to: baseline	CD8+CD28+ naive T-cell change	-4.38%
CN(C)C(=O)Oc1cccc([N+](C)(C)C)c1	neuromuscular block reversal	rat	dose not given, 14.5 (unit not given), added: cisatracurium	relative to: T1 twitch	train-of-four ratio	96.6

Compound	assay	system	setting	scale	endpoint	result
C[C@H]1C[C@H]2CSC(N)=N[C@@]2(c2nc(NC(=O)c3ccc(OC(F)F)cn3)cs2)CO1	measured: total Aβ	healthy adults, plasma	400 mg single dose, 6 h post-dose	relative to: placebo	percent change from baseline	-59.3%
Cc1ccc(-c2nsc(N)n2)o1	CoA-CPM signal reduction, CPM fluorescence thiol	cell-free biochemical	assay interference counter-screen, added: CoA replacing acetyl-CoA	–	IC50	> 125 µM
Cc1noc(C)c1-c1cc(C(O)(c2ccccn2)c2ccccn2)c2nc(C3CC3)[nH]c2c1	measured: CCR2 expression	human, peripheral blood	4 mg, day 8, 1599 study	–	maximum inhibition	57.6%
C=CCn1c(=O)c2cnc(Nc3ccc(N4CCN(C)CC4)cc3)nc2n1-c1ccc2c(n1)[C@@](O)(CC)CC2	–	OVCAR-3 xenograft, NOD/SCID mouse	90 mg/kg once daily, :3	–	tumour growth inhibition	96.1%
Cc1n[nH]c2ccc(-c3cc(OC[C@@H](N)Cc4ccccc4)cnc3-c3ccoc3)cc12	kinase binding, competitor, MIB/MS competition, measured: KSP1	Candida albicans cell lysate	1 µM	relative to: DMSO	log2 fold change	-0.354
CN[C@@H]1COc2c(S(=O)(=O)NC(=O)Nc3c4c(cc5c3CCC5)CCC4)cnn2C1	measured: IL-1β	human participants, whole blood ex vivo	900 mg single dose, 4 h, added: LPS/ATP	relative to: baseline	inhibition	99.6%
CO[C@H]1C[C@@H]2CC[C@@H](C)[C@@](O)(O2)C(=O)C(=O)N2CCCC[C@H]2C(=O)O[C@H]([C@H](C)C[C@@H]2CC[C@@H](O)[C@H](OC)C2)CC(=O)[C@H](C)/C=C(\C)[C@@H](O)[C@@H](OC)C(=O)[C@H](C)C[C@H](C)/C=C/C=C/C=C/1C	oral glucose tolerance test	healthy adult horses	dose not given, 120 min, baseline before treatment	–	blood glucose	163 mg/dL
NC1(C(=O)N[C@@H](CCO)c2ccc(Cl)cc2)CCN(c2nc[nH]c3nccc2-3)CC1	–	human mCRPC patients	dose not given, added: enzalutamide	–	PSA non-response rate	81.8%
c1ccc(-c2n[nH]cc2-c2ccnc3ccccc23)nc1	kinase binding, competitor, MIB/MS competition, measured: PKH2	Candida albicans cell lysate	10 µM	relative to: DMSO	log2 fold change	1.69
CC1(C)CCC(c2ccc(Cl)cc2)=C(CN2CCN(c3ccc(C(=O)NS(=O)(=O)c4ccc(N[C@H](CCN5CCOCC5)CSc5ccccc5)c(S(=O)(=O)C(F)(F)F)c4)cc3)CC2)C1	cell killing	canine blood CD3+ T cells, dog 39	24 h	–	EC50	0.222 µM
CNCc1cc(-c2ccccc2F)n(S(=O)(=O)c2cccnc2)c1	gastric acid secretion	dog Heidenhain pouch	oral, 3 mg/kg, 24 h after dosing, added: histamine	–	inhibition	61.9%
[Cl-].[Cl-].[Ru+2].c1cnc2c(c1)ccc1cccnc12.c1cnc2c(c1)ccc1cccnc12.c1csc(-c2nc3c4cccnc4c4ncccc4c3[nH]2)c1	–	air-saturated acetonitrile	–	relative to: Ru(bpy)3(PF6)2	singlet oxygen quantum yield	0.62
CC(C)NCC(O)c1ccc(O)c(O)c1 (stereo not shown)	–	ventricular cardiomyocytes, C57BL/6 mouse	dose not given, 0.692 s	–	sarcomere length	1.72 µm
CCc1c(C)nc(-c2ccc(Cl)s2)nc1Nc1ccc(CC(=O)O)cc1	–	C57BL/6J mice, high-fat diet	intraperitoneal, 0.3 mg/kg daily, 60% fat diet 12 weeks, dosed last four	relative to: vehicle	fed blood glucose	decreased
Nc1ncnc2[nH]c(S)nc12	CoA-CPM signal reduction, CPM fluorescence thiol	cell-free biochemical	assay interference counter-screen, added: CoA replacing acetyl-CoA	–	IC50	220 ± 90 µM
OC(CCN1CCCCC1)(c1ccccc1)C1CC2C=CC1C2 (stereo not shown)	resting-state EEG	healthy elderly humans	oral, 4 mg, eyes open, LS mean	relative to: baseline	change, Delta EEG power, in O2-Pz	48.8%
CC(C)(C)c1nsc(N)n1	CoA-CPM signal reduction, CPM fluorescence thiol	cell-free biochemical	assay interference counter-screen, added: CoA replacing acetyl-CoA	–	IC50	> 125 µM
Cn1cc([C@H]2C[C@H]3CSC(N)=N[C@@]3(c3ccc(F)cc3F)CO2)cn1	measured: Aβx-42	Mus musculus wild-type, brain	subcutaneous, 10 mg/kg, 6 h	–	Aβ42 level	0.32 ng/g
N#CCC1CCN(c2nc(Nc3ccc(N4CCC(O)CC4)cc3)c3c(=O)[nH]ncc3n2)CC1	Olink multiplex	human, serum	20 mg, day 15, unit not given	relative to: baseline	IL-18 level change	-1.02
Cl.N[C@@H](Cc1ccc(Oc2nnc(-c3ccccc3)nn2)cc1)C(=O)O	iEDDA cycloaddition	aqueous DMSO 25 %	37 °C, added: TCO-OH 350 µM	–	kobs	0.03 s⁻¹
CC[C@@H]1[C@H](F)C(=O)N[C@@H]1COc1nccc2cc(C(N)=O)c(OC)cc12	ATP-site probe binding, ActivX profiling, measured: MARK2, MARK3	THP-1 cell lysate	0.01 mM, Lys2 site	–	inhibition	2.3%
CCCCCCCC[C@H](NC(=O)[C@@H]1C[C@H](C)CN1C(=O)/C=C/[C@@H](C)CC)C(=O)N[C@H](C(=O)NC(C)(C)C(=O)N[C@@H](CC(C)C)C(=O)N[C@@H](CC(C)C)C(=O)NC(C)(C)C(=O)NC(C)(C)C(=O)NCCC(=O)N[C@@H](C)CN(C)C)[C@H](O)C(C)C	–	small unilamellar vesicles	concentration not given	–	calcein leakage	34.8%
COC[C@@H](c1ccc(C(F)(F)F)cc1)N1CCN(C2(C)CCN(C(=O)c3c(C)ncnc3C)CC2)C[C@@H]1C	–	HIV-1 infected patients, plasma	10 mg, week 48, with optimized background regimen	relative to: baseline	change in HIV-1 RNA	-2.39 log10 copies/mL
